Measurements gathered from unrelated publications.
A part holds a random share of what one study measured.

Series 1 — technique: protein-binding microarray; molecule type: double-stranded DNA, one strand shown; sample: in vitro; tested at: 0.8 µM; setting: whole 60-bp probe, no competitor; reading: higher = stronger binding; quantity: fluorescence intensity; constant ends, left off below: … GTCTTGATTCGCTTGACGCTGCTG
Target: Centromere-binding protein 1, full length, N-terminal tag (CBF1, Saccharomyces cerevisiae, UniProt P17106, residues 1-351)
UniProt P17106, sequence (whole entry, looked up): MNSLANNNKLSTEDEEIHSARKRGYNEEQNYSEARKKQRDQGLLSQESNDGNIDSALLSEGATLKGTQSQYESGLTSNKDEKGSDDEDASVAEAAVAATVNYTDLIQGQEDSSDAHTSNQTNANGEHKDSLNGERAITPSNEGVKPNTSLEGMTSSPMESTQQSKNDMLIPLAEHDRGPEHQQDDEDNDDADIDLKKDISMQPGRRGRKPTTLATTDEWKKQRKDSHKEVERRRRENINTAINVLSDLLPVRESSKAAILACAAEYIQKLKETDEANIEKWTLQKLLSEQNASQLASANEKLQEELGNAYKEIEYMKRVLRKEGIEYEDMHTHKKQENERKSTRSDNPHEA
CTATAAAGAGGGACTCATATGATCTTATGAAATTTC: 554 a.u.
GAATACTTATGTATTTGCGTGATAAACTTGCTTTAG: 541 a.u.
CTAATATATATCTACTAGATCACGTTGCAAGACTTC: 2260 a.u.
CTACTCGAGTTTACCATGTGAACCGAAGGCATGTTC: 624 a.u.
GAATGGGTCCTAATGCATGTGGTGCATGGGTCCTAG: 524 a.u.
CTATCTAACGCAACGCACGAGGCGGCTCACTCATTC: 552 a.u.
CTATCTATTTACCGGGTGATGGCGGCGCGCCACTTC: 498 a.u.
GAAATCCATTATCCACACGTTGCTGTGTCGACTTAG: 504 a.u.
GAAAAAGCAAACAGACACGTTAAGAAGGTAAGATAG: 551 a.u.
CTAAAAATAATAAATGGTCACGTTGGCATAAGTTTC: 4170 a.u.
GAACGAATTTAATACTGCCTGACGGCGTGCCACTAG: 565 a.u.
CTATTCTTTTCGCGTGGTCATTTTCGCGTTGGGTTC: 687 a.u.
CTATATTTCATCCACCACGTAAGAACGGTTTTCTTC: 539 a.u.
CTAGTAATCAATACGGTGGTGACGACGATTACTTTC: 513 a.u.
CTACGGGTACCCTCCCTCGTGCTATTATATTACTTC: 962 a.u.
GAACTTTTTCCTTATCACGTTGAGCCATTAGTATAG: 1180 a.u.
CTATACTGATTTTTTCATATGATAAGTGGATATTTC: 530 a.u.
CTAAATTTTCAATAGCATGTGCATATGTTTAATTTC: 804 a.u.
CTAAGGGTGCGCGGGCACGCAGGGTAAGAGCCGTTC: 475 a.u.

Series 2 — technique: protein binding microarray; molecule type: double-stranded DNA, one strand shown; sample: in vitro; tested at: not given; reference: not given; reading: higher = stronger binding; quantity: E-score
Target: Histone acetyltransferase KAT6A, winged helix 1, GST fusion (KAT6A, Homo sapiens, UniProt Q92794, residues 1-85)
Setting: 8-mer, flanks averaged, mean of 2 arrays, mostly near background
Construct (chain): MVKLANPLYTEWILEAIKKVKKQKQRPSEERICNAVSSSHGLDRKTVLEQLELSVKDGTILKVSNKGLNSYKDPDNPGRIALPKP
CATTTCCG: 0.124
ATTGATTC: 0.091
CACTCCCG: 0.167
GACGGAAA: 0.302
TCAGTCAA: -0.21
CACCGATA: 0.0504
ATTTTGAA: -0.125
ACATGGGC: -0.0715
GACAACGA: -0.0984
GATATCGC: 0.0541
ATGATTTC: -0.229
AGATTTTG: -0.158
ATCACACG: 0.0134
CTAACGTC: -0.0467
ATGAGGTG: -0.266
AGTTGTGC: -0.121
GTTACCGA: 0.167
AAAATCCT: -0.166
TAACGCCA: 0.062
GCATGACA: -0.12
CTCCAGCC: 0.0387
ATTTGTAG: -0.198
AGTCGGAG: -0.106
ACTGAATG: 0.0353
CTCGAGAC: -0.136

Series 3 — technique: protein-binding microarray; molecule type: double-stranded DNA, one strand shown; sample: in vitro; tested at: not given; reading: higher = stronger binding; quantity: E-score
Target: Myc proto-oncogene protein, bHLH-zipper, MAX partner unstated (MYC, Homo sapiens, UniProt P01106, residues 368-449)
UniProt P01106, sequence (368-449, looked up): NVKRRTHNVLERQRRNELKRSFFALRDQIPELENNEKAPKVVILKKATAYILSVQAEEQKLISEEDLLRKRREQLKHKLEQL
Setting: k-mer, scored over probes, only values ≥0.25
GGCGTGCA: 0.348
ACGTGCTC: 0.45
ATGCTTCC: 0.311
ATGTGCCA: 0.298
ATCGCCAC: 0.29
CGACATGA: 0.253
CGCATGGC: 0.472
ATTGCGTG: 0.263
ACGTGGAT: 0.437
GCGCCGCA: 0.258
CCCACGCC: 0.391
GAACATGC: 0.399
ACACGCTC: 0.299
ACGCACGT: 0.408
CGCGTGAA: 0.367
GCACACGC: 0.423
AGCCATGC: 0.437
CACGCCCA: 0.339
ATGCCCAC: 0.33
ATGCGTCA: 0.305
ATGCGCAC: 0.341
CATGTGGA: 0.463
CCGCGTGA: 0.423

Series 4 — technique: aptamer microarray, sandwich; molecule type: DNA with 2'F-ANA; sample: in vitro; tested at: 200 nM; with: Cy3 exosite-II aptamer, 400 nM; reading: higher = stronger binding; quantity: mean fluorescence intensity; oligonucleotide: GGTTGGTGTGGTTGG
Target: Prothrombin, mature alpha-thrombin (F2, Homo sapiens, UniProt P00734)
Setting: whole 15-mer aptamer, many near background
2'F-ANA at 1 2 4 6 8 11 13 14: 68.1 a.u.
2'F-ANA at 3 4 5 9 11 12 13 15: 116 a.u.
2'F-ANA at 7 8 9 12 13 14 15: 262 a.u.
2'F-ANA at 2 3 5 7 8 9 10 11 15: 53.1 a.u.
2'F-ANA at 5 7 8 12: 205 a.u.
2'F-ANA at 1 2 4 7 8 11 12 13 15: 189 a.u.
2'F-ANA at 1 3 6 8 9 10 12 13: 105 a.u.
2'F-ANA at 4 5 6 7 9 11 12 13: 67.2 a.u.
2'F-ANA at 1 4 6 7 9 11 12 13: 120 a.u.
2'F-ANA at 3 4 6 7 11 12 14 15: 317 a.u.
2'F-ANA at 2 3 5 6 7 9 10 11 13 14: 63.9 a.u.
2'F-ANA at 1 4 7 11 13 14: 49.7 a.u.
2'F-ANA at 1 3 5 6 12 13 15: 99.5 a.u.
2'F-ANA at 1 2 3 5 6 7 9 10 14: 248 a.u.
2'F-ANA at 1 4 10: 78.4 a.u.
2'F-ANA at 4 5 9 12: 169 a.u.
2'F-ANA at 3 4 7 10 11 14: 239 a.u.
2'F-ANA at 4 6 8 9 10 11 13: 63.6 a.u.
2'F-ANA at 1 3 4 6 15: 189 a.u.
2'F-ANA at 1 3 4 6 7 9 10 14: 49.3 a.u.
2'F-ANA at 1 3 4 5 6 7 8 9 15: 65 a.u.
2'F-ANA at 1 2 6 7: 164 a.u.
2'F-ANA at 5 6 8 9 10 12 13 14 15: 46.1 a.u.
2'F-ANA at 3 6 9 11 12 14 15: 516 a.u.
2'F-ANA at 2 4 5 7 9 11 12 14 15: 61.3 a.u.

Series 5 — technique: universal PBM; molecule type: double-stranded DNA, one strand shown; sample: in vitro; tested at: 600 nM; reading: higher = stronger binding; quantity: E-score
Target: Sal-like protein 4, full length isoform A (SALL4, Homo sapiens, UniProt Q9UJQ4, residues 1-1053)
UniProt Q9UJQ4, sequence (whole entry, looked up): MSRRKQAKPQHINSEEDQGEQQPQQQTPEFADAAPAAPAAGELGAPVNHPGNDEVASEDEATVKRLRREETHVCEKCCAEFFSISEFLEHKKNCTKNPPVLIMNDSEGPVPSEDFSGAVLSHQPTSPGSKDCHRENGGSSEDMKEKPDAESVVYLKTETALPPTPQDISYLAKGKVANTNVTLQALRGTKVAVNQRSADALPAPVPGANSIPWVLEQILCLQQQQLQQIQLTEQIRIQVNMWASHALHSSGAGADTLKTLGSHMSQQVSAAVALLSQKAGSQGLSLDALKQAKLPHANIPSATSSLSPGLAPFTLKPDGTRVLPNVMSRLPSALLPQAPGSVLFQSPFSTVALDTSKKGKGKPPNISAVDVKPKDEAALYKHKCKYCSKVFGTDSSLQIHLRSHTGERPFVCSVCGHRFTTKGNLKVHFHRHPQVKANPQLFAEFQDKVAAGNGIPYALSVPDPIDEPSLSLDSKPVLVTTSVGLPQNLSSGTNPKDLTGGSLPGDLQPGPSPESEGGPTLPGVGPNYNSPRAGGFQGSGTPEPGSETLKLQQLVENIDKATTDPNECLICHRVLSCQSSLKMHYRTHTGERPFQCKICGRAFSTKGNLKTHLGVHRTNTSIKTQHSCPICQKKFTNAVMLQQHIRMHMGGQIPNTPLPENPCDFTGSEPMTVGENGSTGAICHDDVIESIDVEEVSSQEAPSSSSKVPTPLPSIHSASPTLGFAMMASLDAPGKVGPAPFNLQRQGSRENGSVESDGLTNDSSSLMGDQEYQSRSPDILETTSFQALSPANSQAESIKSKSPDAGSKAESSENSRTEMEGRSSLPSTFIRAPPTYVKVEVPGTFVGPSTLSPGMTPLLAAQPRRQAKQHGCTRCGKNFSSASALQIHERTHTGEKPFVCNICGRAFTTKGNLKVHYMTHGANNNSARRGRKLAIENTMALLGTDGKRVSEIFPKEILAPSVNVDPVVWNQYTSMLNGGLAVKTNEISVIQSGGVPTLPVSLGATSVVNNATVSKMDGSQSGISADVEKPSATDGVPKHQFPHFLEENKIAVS
Setting: 8-mer, flanks averaged, mean of replicates
TATCTCCA: 0.109
CGACAACA: -0.0674
AGCGCAAT: 0.0897
AGCTCCCA: -0.267
CCGTTCAG: -0.227
ATTCCCTA: 0.14
CCGCGGAG: -0.364
CGCATCTA: 0.0467
AGGAGTAA: 0.0837
CGTGAAAC: -0.0355
CTAGCAAC: 0.0227
ATGAAGCG: -0.13
TACTAGAA: 0.177
GAATACGC: 0.0867
CGAGTCCC: -0.206
CAGGAGTC: -0.137
CCACACAG: -0.0887
ATCCCCAG: -0.176
CGTATCGC: -0.181
CCAAACTC: -0.119
ATATCTGC: 0.169
AACCGTCC: -0.0873
CCGATAAA: 0.18
GCTTAGTA: 0.11
GCCACGTA: -0.0478

For quick reference, copied from above (series 2):
CACCGATA: 0.0504
CATTTCCG: 0.124
ATCACACG: 0.0134
GATATCGC: 0.0541
GTTACCGA: 0.167
GACAACGA: -0.0984
AGATTTTG: -0.158
ATTGATTC: 0.091
CTCGAGAC: -0.136
CTAACGTC: -0.0467
GACGGAAA: 0.302
